Measured values collected from several papers.
Lines come from different studies, so protocols differ. ± marks the error that the study gave.

SMILES	test	test system	conditions	scale	measurement	value
CCCC[C@@H]1NC(=O)[C@@H](NC(=O)[C@H](CCC(=O)O)NC(=O)CNC(=O)CN2CCN(CC(=O)O)CCN(CC(=O)O)CCN(CC(=O)O)CC2)CCCCNC(=O)C[C@@H](C(N)=O)NC(=O)[C@H](C(C)C)NC(=O)[C@@H]2CCCN2C(=O)[C@H](CCCNC(=N)N)NC(=O)CNC(=O)[C@H](Cc2c[nH]c3ccccc23)NC(=O)[C@H](CCCNC(=N)N)NC(=O)[C@@H](Cc2ccccc2)NC(=O)[C@H](Cc2c[nH]cn2)NC(=O)[C@H](CCC(=O)O)NC1=O [gallium-67 labelled]	–	normal C57 mice	intravenous, 0.037 MBq, 4 h	–	urine excretion	88.2 ± 1.22%
CC(C)c1cnc(-c2cc(Cl)ccc2F)cc1Nc1ccncc1C(=O)NC(CO)CO	–	patients, phase I monotherapy	oral, dose not given, grade 4	–	patients with anaemia	0%
O=[11C](OC(C(F)(F)F)C(F)(F)F)N1CCC(CNS(=O)(=O)c2ccc(Cl)cc2)CC1	PET	Sprague-Dawley rat, cerebral cortex	intravenous	–	uptake	1.75 SUV
Cc1ccc([C@@H]2O[C@H](CO)[C@@H](O)[C@H](O)[C@H]2O)cc1Cc1ccc(-c2ccc(F)cc2)s1	–	albino rabbit, plasma	oral or sublingual, dose not given	–	AUC(0-24h)	11000 ± 987 ng·h/mL
OCc1cn(Cc2ccc(-c3noc(-c4ccc(OCC[18F])c(C(F)(F)F)c4)n3)cc2)nn1	–	female Lewis rat, fat	intravenous, 120 min	–	tissue uptake	0.57 ± 0.07 %ID/g
N#Cc1nc(N2CCOCC2)nc(N(Cc2ccc(F)cc2)CC2CCCNC2)n1 (stereo not shown)	–	female CD-1 mice	intraperitoneal, 10 mg/kg, 7 h	–	brain concentration	12.4 ng/g
CCC(=O)N[C@@H](C)C(=O)OCC(=O)N[C@@H](C)C(=O)O	–	water	pH 3, 65 °C	–	depolymerization half-life	90.6 h
NCCCC(=O)OCC(=O)c1ccc(O)c(C(F)(F)F)c1	–	water	together with: potassium sorbate quencher	–	Stern-Volmer constant	33 M⁻¹
CN1CCC[C@]1(C)/C=C/S(=O)(=O)NC(=O)Nc1c2c(cc3c1CCC3)CCC2	–	human, plasma	oral, 50 mg, single dose, healthy volunteers	–	AUC(0-inf)	41400 ng·h/mL
C=C(C)c1ccc([C@H]2C[C@@]3(C)[C@@H](CC[C@@]3(O)C(F)(F)C(F)(F)F)[C@@H]3CCC4=CC(=O)CCC4=C32)cc1	–	rat liver microsomes	100 % absorption assumed	–	maximal oral bioavailability	53%
CCOc1ccc2c(c1)C(C)=CC(C)(C)N2c1cc(OCC)cc2c1NC(C)(C)C=C2C	LC-MS/MS	laying hens, kidney	oral in feed, 50 mg/kg feed ethoxyquin, 56 days	–	tissue residue	2.7 ± 1.3 ng/g
NCCCC[C@H](NC(=O)[C@@H]1CCCN1C(=O)[C@@H]1CSSC[C@H](N)C(=O)N[C@@H](Cc2ccc(O)cc2)C(=O)N[C@@H](Cc2ccccc2)C(=O)N[C@@H](CCC(N)=O)C(=O)N[C@@H](CC(N)=O)C(=O)N1)C(=O)NCC(N)=O	–	Sprague Dawley rats	sc, 0.2 mg/kg terlipressin, metabolite	–	duration detectable in blood	2 h
CC(=O)N[C@H](CC(=O)O)C(=O)N[C@H](Cc1c[nH]c2ccccc12)C(=O)N[C@H](Cc1ccccc1)C(=O)N[C@H](CCCCN)C(=O)N[C@H](C)C(=O)N[C@H](Cc1ccccc1)C(=O)N[C@H](Cc1ccc(O)cc1)C(=O)N[C@H](CC(=O)O)C(=O)N[C@H](CCCCN)C(=O)N[C@@H](C(=O)N[C@H](C)C(=O)N[C@H](CCC(=O)O)C(=O)N[C@H](CCCCN)C(=O)N[C@H](Cc1ccccc1)C(=O)N[C@H](CCCCN)C(=O)N[C@H](CCC(=O)O)C(=O)N[C@H](C)C(=O)N[C@H](Cc1ccccc1)C(N)=O)C(C)C	–	statin-treated high-risk CHD women, plasma	oral, 100 mg daily, day 1, 0 to 2 h, mean, undetectable set to 0	–	AUC(0-t)	6.42 ng·h/mL
C#CC(C)NC(=O)C(CC(C)(C)F)NC(c1ccc(-c2ccc(S(C)(=O)=O)cc2)cc1)C(F)(F)F (stereo not shown)	LC-MS UV trace	aqueous buffer	concentration not given, 23 h, pH 8.0, 37 °C, together with: cysteine 10 mM	–	cysteine adduct formation	0%
CCCCN1C(=O)c2cccc3c(NCCN4CCOCC4)ccc(c23)C1=O	–	aqueous medium	pH 6	–	average fluorescence lifetime	6.9 ns
[11CH3]c1ccc2nc(C3CCC3)n(-c3ccc4[nH]ncc4c3)c2n1	–	human male, liver	–	–	absorbed radiation dose	11.1 µSv/MBq
NC[C@@H](C(=O)Nc1ccc(-c2cn[nH]c2)cc1)c1ccccc1	OECD 405 eye irritation	New Zealand White rabbit, eye	topical, 0.1%, 48 h (day 3)	direction not given	total eye irritation score	0
COc1cc2c(cc1OC)CN(CCCCn1ccc3cc(OCC[18F])ccc31)C2	–	male ICR mice	intravenous, 2 min post-injection	–	brain uptake	3.76 ± 0.28 %ID/g
NS(=O)(=O)c1ccc(N2N=C(C(F)(F)F)CC2c2ccc(F)cc2F)cc1 (stereo not shown)	–	Beagle dog, both sexes, plasma	oral, 4 mg/kg, single dose	–	AUC(0-24h)	12300 ± 4330 ng·h/mL
Cc1cnc(Nc2cc(C)c(C)c(C)c2)nc1Nc1ccc2oc(=O)[nH]c2c1	–	rat, plasma	intravenous, 1.0 mg/kg	–	Vss	1.3 L/kg
COC1C=COC2(C)Oc3c(C)c(O)c4c(c3C2=O)C2=NC3(CCN(CC(C)C)CC3)NC2=C(NC(=O)C(C)=CC=CC(C)C(O)C(C)C(O)C(C)C(OC(=O)c2cncnc2)C1C)C4=O (stereo not shown)	–	CD-1 mouse female, plasma	oral, 10 mg/kg	–	fAUC/MIC ratio	96
COc1cc(NC(C)=O)c2c(c1O)-c1c(OC)c(OC)cc3c1C(C2)N(C)CC3 (stereo not shown)	–	rat heart homogenate	0.5 µg/mL, time not given, three freeze-thaw cycles	–	remaining compound	104 ± 2.9%
CN(C)c1ccc(/C=C/c2cc(/C=C3\Sc4ccccc4N3CCCN3CCCC3)c3ccccc3[n+]2C)cc1	–	Sprague-Dawley rat, female, plasma	intravenous, 1.5 mg/kg, 2 h	–	compound remaining in plasma	40%
Cc1ccc(OCC(=O)Nc2cc[nH]n2)cc1	LC-MS EIC	dog liver microsomes, pooled, both sexes	10 µM, 60 min	baseline: reference compound at start	relative peak area	5.14%
CCCC[C@H](NC(=O)CNC(=O)CNC(=O)CN1CCN(CC(=O)O)CCN(CC(=O)O)CCN(CC(=O)O)CC1)C(=O)N[C@H]1CC(=O)NCCCC[C@@H](C(N)=O)NC(=O)[C@H](Cc2c[nH]c3ccccc23)NC(=O)[C@H](CCCNC(=N)N)NC(=O)[C@@H](Cc2ccccc2)NC(=O)[C@H](Cc2c[nH]cn2)NC1=O [gallium-67 labelled]	–	female C57 mice, B16/F1 melanoma	intravenous, 0.037 MBq, 24 h	baseline: tumour over liver	tumour to tissue ratio	13.9
CC1=C(C2=C(C)C(=O)c3c(cc(O)c(O)c3Cc3ccccc3)C2=O)C(=O)c2cc(O)c(O)c(Cc3ccccc3)c2C1=O (racemic)	–	rat plasma	100 µM, 1 h	–	degraded compound	1 ± 0.5%
CC(=O)N[C@H](C)c1cc(Cl)ccc1Cn1c(=S)[nH]c(=O)c2[nH]ccc21	–	Sprague-Dawley rat, male, plasma	oral, 125 mg/kg/day	baseline: rat over human 5 mg	exposure ratio	2.8
C#CCN(CCCNC(=O)CCCCC[N+]1=C(/C=C/C2=C(Cl)C(=C/C=C3\N(CCCCCC(=O)[O-])c4ccccc4C3(C)C)/CCC2)C(C)(C)c2ccccc21)CCCOc1ccc(Cl)cc1Cl	–	C57BL mouse, plasma	intravenous, 5 mg/kg	–	AUC(0-90 min)	832000 ng·h/mL

Some of these lines once more:
SMILES	test	test system	conditions	scale	measurement	value
C=C(C)c1ccc([C@H]2C[C@@]3(C)[C@@H](CC[C@@]3(O)C(F)(F)C(F)(F)F)[C@@H]3CCC4=CC(=O)CCC4=C32)cc1	–	rat liver microsomes	100 % absorption assumed	–	maximal oral bioavailability	53%
C#CC(C)NC(=O)C(CC(C)(C)F)NC(c1ccc(-c2ccc(S(C)(=O)=O)cc2)cc1)C(F)(F)F (stereo not shown)	LC-MS UV trace	aqueous buffer	concentration not given, 23 h, pH 8.0, 37 °C, together with: cysteine 10 mM	–	cysteine adduct formation	0%
